# Results from different studies.
# Protocols differ between the studies behind these lines. Several values in a cell are separate wells, animals, samples, runs or records. ± gives the spread as reported.
# Chain of UniProt Q16644 (whole entry, looked up): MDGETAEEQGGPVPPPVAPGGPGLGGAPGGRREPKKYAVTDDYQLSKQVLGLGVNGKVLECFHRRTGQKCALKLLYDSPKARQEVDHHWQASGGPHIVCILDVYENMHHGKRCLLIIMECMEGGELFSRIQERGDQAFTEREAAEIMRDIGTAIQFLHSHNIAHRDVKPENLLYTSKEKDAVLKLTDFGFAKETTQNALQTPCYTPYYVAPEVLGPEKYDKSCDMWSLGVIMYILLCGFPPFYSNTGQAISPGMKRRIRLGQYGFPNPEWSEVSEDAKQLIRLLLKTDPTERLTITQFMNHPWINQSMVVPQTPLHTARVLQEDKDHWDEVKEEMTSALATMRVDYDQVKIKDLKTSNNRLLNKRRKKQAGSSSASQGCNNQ
# Chain of UniProt Q9DBL9 (whole entry, looked up): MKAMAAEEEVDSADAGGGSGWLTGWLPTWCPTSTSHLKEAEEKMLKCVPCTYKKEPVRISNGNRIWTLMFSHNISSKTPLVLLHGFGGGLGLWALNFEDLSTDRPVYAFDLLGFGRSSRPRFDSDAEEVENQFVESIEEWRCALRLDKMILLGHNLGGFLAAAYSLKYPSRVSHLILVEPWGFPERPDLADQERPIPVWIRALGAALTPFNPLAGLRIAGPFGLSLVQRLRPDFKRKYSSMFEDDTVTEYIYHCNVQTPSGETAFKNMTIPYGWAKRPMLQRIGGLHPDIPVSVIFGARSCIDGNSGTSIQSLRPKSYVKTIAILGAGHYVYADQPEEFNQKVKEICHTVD
# Chain of UniProt Q9UM07 (whole entry, looked up): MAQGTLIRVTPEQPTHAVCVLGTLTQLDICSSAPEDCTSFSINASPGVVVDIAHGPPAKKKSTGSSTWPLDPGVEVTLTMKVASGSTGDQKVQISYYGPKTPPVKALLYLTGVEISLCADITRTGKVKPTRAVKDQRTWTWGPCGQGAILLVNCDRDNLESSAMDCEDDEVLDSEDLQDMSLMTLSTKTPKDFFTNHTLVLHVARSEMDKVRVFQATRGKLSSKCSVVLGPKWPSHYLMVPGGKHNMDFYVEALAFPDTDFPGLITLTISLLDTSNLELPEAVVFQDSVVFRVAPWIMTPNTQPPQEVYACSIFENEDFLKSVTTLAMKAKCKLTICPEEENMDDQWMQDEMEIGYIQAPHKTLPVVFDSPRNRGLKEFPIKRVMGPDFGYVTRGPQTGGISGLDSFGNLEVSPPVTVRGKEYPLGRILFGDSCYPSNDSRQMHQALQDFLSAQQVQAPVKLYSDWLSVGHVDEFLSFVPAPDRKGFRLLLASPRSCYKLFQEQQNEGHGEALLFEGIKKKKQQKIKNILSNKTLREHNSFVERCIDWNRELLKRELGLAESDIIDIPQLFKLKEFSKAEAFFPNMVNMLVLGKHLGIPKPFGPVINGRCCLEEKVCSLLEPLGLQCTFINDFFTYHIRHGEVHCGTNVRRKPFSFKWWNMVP
# Chain of UniProt Q08460 (whole entry, looked up): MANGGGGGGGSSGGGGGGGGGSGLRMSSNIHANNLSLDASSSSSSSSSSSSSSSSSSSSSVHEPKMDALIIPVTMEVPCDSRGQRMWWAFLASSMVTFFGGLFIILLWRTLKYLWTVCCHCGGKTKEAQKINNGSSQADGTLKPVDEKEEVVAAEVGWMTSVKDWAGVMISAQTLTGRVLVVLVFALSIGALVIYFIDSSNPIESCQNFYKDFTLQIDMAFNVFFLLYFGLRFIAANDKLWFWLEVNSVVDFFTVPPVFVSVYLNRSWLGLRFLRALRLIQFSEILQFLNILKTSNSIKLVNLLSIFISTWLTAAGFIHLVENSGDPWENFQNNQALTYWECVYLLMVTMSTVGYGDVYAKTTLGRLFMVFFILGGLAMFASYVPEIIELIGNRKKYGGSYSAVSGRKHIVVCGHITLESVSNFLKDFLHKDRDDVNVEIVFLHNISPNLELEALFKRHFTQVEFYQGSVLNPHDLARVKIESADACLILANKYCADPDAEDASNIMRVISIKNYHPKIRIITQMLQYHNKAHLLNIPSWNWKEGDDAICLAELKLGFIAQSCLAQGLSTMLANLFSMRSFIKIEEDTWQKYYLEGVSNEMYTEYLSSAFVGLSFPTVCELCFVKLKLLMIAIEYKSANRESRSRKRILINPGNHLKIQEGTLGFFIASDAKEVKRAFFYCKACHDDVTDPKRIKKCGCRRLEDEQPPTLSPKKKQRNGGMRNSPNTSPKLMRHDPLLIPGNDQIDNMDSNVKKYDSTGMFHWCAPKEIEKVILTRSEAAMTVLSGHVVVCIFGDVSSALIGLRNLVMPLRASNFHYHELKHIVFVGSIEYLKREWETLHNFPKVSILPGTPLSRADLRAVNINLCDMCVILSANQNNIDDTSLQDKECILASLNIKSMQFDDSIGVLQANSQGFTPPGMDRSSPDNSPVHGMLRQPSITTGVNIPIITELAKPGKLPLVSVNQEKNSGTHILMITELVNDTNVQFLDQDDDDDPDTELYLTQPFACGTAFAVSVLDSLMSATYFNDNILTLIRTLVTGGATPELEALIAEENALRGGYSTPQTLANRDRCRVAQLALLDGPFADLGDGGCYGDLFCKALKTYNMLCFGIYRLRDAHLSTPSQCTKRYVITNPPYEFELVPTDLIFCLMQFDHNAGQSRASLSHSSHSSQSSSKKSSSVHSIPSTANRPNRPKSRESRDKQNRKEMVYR
# Chain of UniProt P08069 (whole entry, looked up): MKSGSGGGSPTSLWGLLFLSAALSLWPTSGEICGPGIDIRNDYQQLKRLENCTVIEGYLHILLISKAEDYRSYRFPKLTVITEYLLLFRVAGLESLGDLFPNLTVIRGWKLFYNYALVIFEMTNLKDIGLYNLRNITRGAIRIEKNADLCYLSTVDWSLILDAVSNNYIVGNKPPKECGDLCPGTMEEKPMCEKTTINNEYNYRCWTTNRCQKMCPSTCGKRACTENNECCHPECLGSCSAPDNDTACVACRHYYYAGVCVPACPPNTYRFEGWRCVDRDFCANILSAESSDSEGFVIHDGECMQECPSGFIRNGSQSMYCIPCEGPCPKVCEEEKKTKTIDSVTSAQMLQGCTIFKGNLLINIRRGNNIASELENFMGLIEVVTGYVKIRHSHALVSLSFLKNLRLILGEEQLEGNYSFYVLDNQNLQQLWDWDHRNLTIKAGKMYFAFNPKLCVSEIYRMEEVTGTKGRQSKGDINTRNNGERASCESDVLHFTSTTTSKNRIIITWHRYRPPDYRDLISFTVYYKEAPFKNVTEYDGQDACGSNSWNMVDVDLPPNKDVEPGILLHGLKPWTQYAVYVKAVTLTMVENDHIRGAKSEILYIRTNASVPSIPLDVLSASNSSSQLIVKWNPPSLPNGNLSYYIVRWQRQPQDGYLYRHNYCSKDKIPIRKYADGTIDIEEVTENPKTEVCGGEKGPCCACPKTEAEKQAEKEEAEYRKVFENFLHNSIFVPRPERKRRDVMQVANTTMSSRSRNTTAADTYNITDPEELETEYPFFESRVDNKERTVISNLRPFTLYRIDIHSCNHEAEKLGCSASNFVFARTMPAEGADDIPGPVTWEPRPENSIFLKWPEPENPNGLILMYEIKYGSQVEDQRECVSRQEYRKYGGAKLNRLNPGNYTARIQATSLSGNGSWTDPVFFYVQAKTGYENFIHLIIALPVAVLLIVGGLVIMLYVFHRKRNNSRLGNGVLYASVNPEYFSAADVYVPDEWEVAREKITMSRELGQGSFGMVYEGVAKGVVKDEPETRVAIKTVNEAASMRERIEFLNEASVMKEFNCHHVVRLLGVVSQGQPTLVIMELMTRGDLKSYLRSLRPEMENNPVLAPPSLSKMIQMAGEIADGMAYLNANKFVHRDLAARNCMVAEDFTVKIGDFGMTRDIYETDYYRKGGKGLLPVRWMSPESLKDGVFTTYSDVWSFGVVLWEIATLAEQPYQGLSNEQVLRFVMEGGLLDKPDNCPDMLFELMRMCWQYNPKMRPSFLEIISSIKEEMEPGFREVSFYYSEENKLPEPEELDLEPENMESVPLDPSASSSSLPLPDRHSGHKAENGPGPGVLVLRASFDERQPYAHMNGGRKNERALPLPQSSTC
# Chain of UniProt Q62666 (whole entry, looked up): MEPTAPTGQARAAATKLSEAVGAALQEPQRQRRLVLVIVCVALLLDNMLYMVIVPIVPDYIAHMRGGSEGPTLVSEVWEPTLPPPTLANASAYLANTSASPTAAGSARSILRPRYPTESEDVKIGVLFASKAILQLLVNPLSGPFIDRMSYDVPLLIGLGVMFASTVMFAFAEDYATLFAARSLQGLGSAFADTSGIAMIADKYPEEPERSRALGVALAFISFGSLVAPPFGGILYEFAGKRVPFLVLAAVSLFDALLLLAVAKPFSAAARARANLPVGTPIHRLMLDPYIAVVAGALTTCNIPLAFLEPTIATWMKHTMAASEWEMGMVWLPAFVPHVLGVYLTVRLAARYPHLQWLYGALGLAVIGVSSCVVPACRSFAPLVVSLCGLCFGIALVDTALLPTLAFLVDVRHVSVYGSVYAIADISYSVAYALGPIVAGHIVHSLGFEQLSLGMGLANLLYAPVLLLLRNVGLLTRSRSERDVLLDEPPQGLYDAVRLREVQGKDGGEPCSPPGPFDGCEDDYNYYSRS
# Chain of UniProt P03146 (whole entry, looked up): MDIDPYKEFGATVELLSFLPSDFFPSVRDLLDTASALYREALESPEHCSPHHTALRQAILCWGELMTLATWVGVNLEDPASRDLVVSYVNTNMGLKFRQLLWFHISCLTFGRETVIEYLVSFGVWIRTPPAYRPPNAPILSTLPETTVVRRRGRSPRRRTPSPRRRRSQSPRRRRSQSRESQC
# Chain of UniProt Q61205 (whole entry, looked up): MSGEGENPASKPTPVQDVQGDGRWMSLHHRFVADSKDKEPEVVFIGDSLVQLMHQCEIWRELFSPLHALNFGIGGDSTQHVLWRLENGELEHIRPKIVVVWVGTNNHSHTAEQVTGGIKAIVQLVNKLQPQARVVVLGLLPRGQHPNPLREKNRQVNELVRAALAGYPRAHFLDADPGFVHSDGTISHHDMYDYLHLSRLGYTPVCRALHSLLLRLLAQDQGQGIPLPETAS
SMILES,target,assay,system,conditions,scale,endpoint,value
CN(C)[C@H]1C[C@@]23CC[C@@]4(O2)C(=CC[C@]2(C)[C@@H](c5ccc6ccncc6c5)CC[C@H]24)C=C3[C@@H](O)[C@@H]1O,"PRKD3 (Homo sapiens, UniProt O94806)","ATP probe labelling, inhibitor, KiNativ profiling",,1 µM,,inhibition,-4%
C#CCCCCOc1ccc2c(c1)CCCN2C(=O)CCl,"Adipocyte plasma membrane-associated protein (Homo sapiens, UniProt Q9HDC9)","mass spectrometry profiling, refers to: APMAP",H460 cell lysate,"100 µM over 10 µM, UniProt Q9HDC9",reference: high over low concentration,reactivity ratio,1.55
O=C1NC(=O)c2c1c1cc(F)c[n+]3c1c1c2c2cc(O)ccc2[n]1[Ru-4]312([N]=C=S)[S+]3CC[S+]1CC[S+]2CC3 (stereo not shown),CK1 (yeast),"kinase activity, inhibitor",,"100 nM, with: 10 µM ATP",,remaining activity,3%
NCC(=O)N[C@H](Cc1ccccc1)C(=O)N[C@@H](Cc1ccccc1)C(=O)N[C@@H](CC(N)=O)C(=O)O,"uncharacterized protein (Aplysia californica, UniProt A0ABM0K1K5)",IP1 accumulation,CHO-K1 transfected,,,fold loss of potency,> 30 fold
CCOC(=O)[C@@H]1Cc2c(cc([N+](=O)[O-])cc2[N+](=O)[O-])[C@H](O)[C@]12C(=O)Nc1ccc(Br)cc12,"PAK2 (Homo sapiens, UniProt Q13177)","binding, competition with immobilised ligand",,0.1 µM,,remaining binding,85%
CC[C@@H](C)[C@@H](NC(=O)[C@@H](CCC(N)=O)NC(=O)[C@H](NC(=O)[C@H]1CCCN1C(=O)[C@H](NC(=O)[C@@H](CO)NC(=O)[C@@H](Cc1ccccc1)NC(=O)[C@H]1CCCN1C(=O)[C@@H](CCC(N)=O)NC(=O)[C@H](N)CCSC)[C@H](C)CC)C(C)C)C(=O)N[C@@H](C(=O)N[C@H](CC(C)C)C(=O)N[C@H](CCC(N)=O)C(=O)NCC(=O)N[C@H](CO)C(=O)N[C@H](CCCNC(=N)N)C(=O)N[C@H](CCCNC(=N)N)C(=O)N[C@H](CCCNC(=N)N)C(=O)N[C@H](CCC(N)=O)C(=O)NCC(=O)N[C@H](CCCNC(=N)N)C(N)=O)[C@H](C)O,"Kcnma1 (Mus musculus, UniProt Q08460)","ion current, blocker, inside-out patch clamp",Xenopus oocytes,"+140 mV, with: 10 µM cytosolic Ca2+",,Hill coefficient,0.96
[CH3][Ti+2][O]C(=O)c1ccc([S][Au][PH](c2ccccc2)(c2ccccc2)c2ccccc2)cc1.c1cc[cH-]c1.c1cc[cH-]c1,"MAPKAPK3 (Homo sapiens, UniProt Q16644)","kinase activity, HotSpot radiometric",,"1 µM, with: ATP 10 µM",reference: vehicle,remaining activity,42% and 41.5%
CCc1nnc(-c2c(OC)cc(-c3cnc4cc(-c5cnn(C)c5)ccn34)cc2OC)o1,"HTR2A (Homo sapiens, UniProt P28223)","agonist radioligand, radioligand binding",,"10 µM, SafetyScreen44 5-HT2A replicate 2",lower = stronger displacement,remaining binding,113%
C=CC(=O)NC[C@H](NC(=O)[C@H](CC1CCCCC1)NC(=O)[C@H](CCC(N)=O)NC(C)=O)C(=O)N[C@@H](CC(C)C)C(=O)N[C@@H](Cc1ccccc1)C(=O)O,"Beta sliding clamp (Escherichia coli, UniProt P0A988)","binding, isothermal titration calorimetry",,"pH 7.4, 37 °C",,-TΔS,6.9 kcal/mol
O=C(N1CCCCC1)n1ccnn1,"Platelet-activating factor acetylhydrolase IB subunit alpha1 (Pafah1b3, Mus musculus, UniProt Q61205)","enzyme activity, inhibitor, competitive ABPP-SILAC, refers to: Pafah1b3",mouse T-cells,"concentration not given, 4 h, treated in situ",reference: DMSO,activity ratio,1.72
O=C(CCNC(=O)c1ccsc1)Nc1cccc(Oc2ccc(Cl)cc2)c1,"S/C (Hepatitis B virus genotype D subtype ayw, UniProt P03138+P03146)","LHBs-HBc interaction, inhibitor, NanoBRET",transfected HepG2,10 µM,direction not given,Z-score,-1.24
O=C(N[C@@H]1c2ccccc2C[C@H]1N1CCCC1)c1ccc(-c2ccnc3[nH]ccc23)nc1,"eIF-2-alpha kinase GCN2, C-terminal kinase domain (EIF2AK4, Homo sapiens, UniProt Q9P2K8, S808G)","binding, competition with immobilised ligand",,3 µM,,remaining binding,0%
C[C@H](NCc1ccc(-c2ccc(C(F)(F)F)cc2)cc1)C(N)=O,"Tyrosine-protein kinase ABL1, phosphorylated (ABL1, Homo sapiens, UniProt P00519, T315I)","cell-free assay, competition with immobilised ligand",,1 µM,,inhibition,10%
O=C(CN1CN(c2ccccc2)C2(CCN(C(=O)c3cnc4[nH]ncc4c3)CC2)C1=O)NCC(F)(F)F,"MET (Homo sapiens, UniProt P08581, M1250T)",inhibitor,,concentration not given,,inhibition,< 50%
O=C(Cc1ccc(Br)cc1)N1CCN(CC(OCc2ccc3ccccc3c2)c2ccc(Cl)cc2Cl)CC1 (stereo not shown),"ULK1 (Homo sapiens, UniProt O75385)","enzyme activity, inhibitor, ADP detection",,0.1 µM,,activity vs control,149%
Cc1cc(C)nc(Sc2nc3sccn3c2[N+](=O)[O-])n1,"Procathepsin L (CTSL, Homo sapiens, UniProt P07711)",FRET,,,,Hill slope,1.34
CC[C@H](C)[C@H](NC(=O)[C@H](CCCNC(=N)N)NC(=O)[C@H](CCCNC(=N)N)NC(=O)[C@H](CC(C)C)NC(=O)[C@H](Cc1ccccc1)NC(=O)CNC(=O)CNC(=O)[C@@H](N)Cc1ccc(O)cc1)C(=O)N[C@@H](CCCNC(=N)N)C(=O)N1CCC[C@H]1C(=O)N[C@@H](CCCCN)C(=O)N[C@@H](CC(C)C)C(=O)N[C@@H](CCCCN)C(=O)O,"GPR139 (Homo sapiens, UniProt Q6DWJ6)","Gαq activation, agonist, BRET",HEK293T/17,40 µM,,Emax,76.7%
CCn1nc(Cl)c2c1-c1cnc(N)c(c1)O[C@H](C)c1cc(F)ccc1-c1nn(C)cc1C2,"PLK4 (Homo sapiens, UniProt O00444)","kinase activity, inhibitor",,,reference: IC50 PLK4 over IC50 ALK,selectivity ratio,199 fold
OC1Cc2ccccc2CC1N1CCC2(C=Cc3cc(Br)ccc32)CC1 (racemic),"Vesicular acetylcholine transporter (Rattus norvegicus, UniProt Q62666)",,rat liver (sigma2),,reference: Ki sigma2 over Ki VAChT,selectivity ratio,35
N[C@H](C(=O)N1CCCC1)C1CCN(c2nccc3c(-c4ncc(Cl)cc4Cl)cccc23)CC1,"PADI4 (Homo sapiens, UniProt Q9UM07)",thermal shift,,0.09521 µM,,melting temperature,53 °C and 53.5 °C
O=c1[nH]c2ccccc2c(=O)o1,"Rhomboid protease AarA (Providencia stuartii, UniProt P46116)",,,,reference: IC50 chymotrypsin over IC50 AarA,selectivity ratio,0.03
CCCCC/C=C\C/C=C\C/C=C\C/C=C\CCCC(=O)NCCc1ccc(O)c(O)c1,"Trpv1 (Mus musculus, UniProt Q704Y3, T551S)","ion current, agonist, whole-cell patch clamp",,T551S,reference: 3 mM 2-APB,maximal open probability,0.71 ± 0.15
CS(C)(=O)=Nc1ccc(-c2ccc(-c3nc4cc(O[C@@H]5CO[C@H]6[C@@H]5OC[C@H]6O)[nH]c4cc3F)cc2)cc1,"Tyrosine-protein kinase Tec, phosphorylated (TEC, Homo sapiens, UniProt P42680)","enzyme activity, inhibitor",,10 µM,,inhibition,22%
CC(C)CC(O)(CC(C)C)c1cn(C(=O)N2CCCC2)nn1,"Abhd5 (Mus musculus, UniProt Q9DBL9)","probe labelling, inhibitor, competitive ABPP-SILAC",mouse T cells,"concentration not given, 4 h, single peptide","reference: treated over DMSO cells, lower = stronger inhibition",SILAC activity ratio,1.27 and 1.17
CC(C)[C@H]1NC(=O)C[C@H]2/C=C/CCSSC[C@@H](NC1=O)C(=O)N[C@H](Cc1cccc3ccccc13)C(=O)NCC(=O)O2,"IGF1R (Homo sapiens, UniProt P08069)","enzyme activity, inhibitor",,10 µM,,inhibition,0.8%

# Repeated from above:
SMILES,target,assay,system,conditions,scale,endpoint,value
CN(C)[C@H]1C[C@@]23CC[C@@]4(O2)C(=CC[C@]2(C)[C@@H](c5ccc6ccncc6c5)CC[C@H]24)C=C3[C@@H](O)[C@@H]1O,"PRKD3 (Homo sapiens, UniProt O94806)","ATP probe labelling, inhibitor, KiNativ profiling",,1 µM,,inhibition,-4%
